# Experimental data gathered from unrelated publications.
# Every numbered part comes from another study and shows a few of its results, in no order. Several values in a cell are separate wells, animals, samples, runs or records.
# UniProt Q56UN5, sequence (whole entry, looked up): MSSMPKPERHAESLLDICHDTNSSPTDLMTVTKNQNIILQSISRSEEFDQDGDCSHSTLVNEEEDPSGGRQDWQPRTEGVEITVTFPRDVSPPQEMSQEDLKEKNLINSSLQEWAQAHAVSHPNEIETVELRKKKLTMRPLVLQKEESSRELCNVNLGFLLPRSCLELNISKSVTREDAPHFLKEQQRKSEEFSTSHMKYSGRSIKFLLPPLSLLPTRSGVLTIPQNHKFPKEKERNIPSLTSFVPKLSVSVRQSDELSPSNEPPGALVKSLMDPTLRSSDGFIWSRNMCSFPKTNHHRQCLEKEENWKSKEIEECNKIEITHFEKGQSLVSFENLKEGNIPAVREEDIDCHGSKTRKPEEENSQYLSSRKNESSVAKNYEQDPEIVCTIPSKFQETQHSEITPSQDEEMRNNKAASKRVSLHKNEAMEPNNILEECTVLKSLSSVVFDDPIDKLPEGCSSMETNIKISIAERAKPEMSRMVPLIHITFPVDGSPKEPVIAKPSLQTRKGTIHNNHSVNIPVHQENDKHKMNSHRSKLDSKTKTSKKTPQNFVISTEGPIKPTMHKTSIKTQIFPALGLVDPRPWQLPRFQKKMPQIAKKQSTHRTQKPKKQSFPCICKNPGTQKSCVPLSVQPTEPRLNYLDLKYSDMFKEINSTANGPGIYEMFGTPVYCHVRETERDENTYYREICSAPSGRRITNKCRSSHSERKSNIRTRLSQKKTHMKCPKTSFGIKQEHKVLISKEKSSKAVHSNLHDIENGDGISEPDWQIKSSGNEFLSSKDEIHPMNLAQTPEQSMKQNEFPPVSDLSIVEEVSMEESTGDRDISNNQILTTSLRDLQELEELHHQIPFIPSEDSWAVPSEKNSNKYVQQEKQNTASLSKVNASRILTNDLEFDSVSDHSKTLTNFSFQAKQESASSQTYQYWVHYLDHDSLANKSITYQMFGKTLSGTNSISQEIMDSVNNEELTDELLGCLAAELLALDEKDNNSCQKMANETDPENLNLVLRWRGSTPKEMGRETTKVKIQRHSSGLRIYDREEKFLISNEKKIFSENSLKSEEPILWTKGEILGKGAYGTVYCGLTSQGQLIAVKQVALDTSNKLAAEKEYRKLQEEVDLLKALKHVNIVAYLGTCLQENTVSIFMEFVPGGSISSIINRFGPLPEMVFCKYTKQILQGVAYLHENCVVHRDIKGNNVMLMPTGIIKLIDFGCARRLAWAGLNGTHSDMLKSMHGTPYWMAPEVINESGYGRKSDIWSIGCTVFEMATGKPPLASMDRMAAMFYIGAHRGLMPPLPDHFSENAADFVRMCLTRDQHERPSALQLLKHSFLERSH
# UniProt Q8NE63, sequence (whole entry, looked up): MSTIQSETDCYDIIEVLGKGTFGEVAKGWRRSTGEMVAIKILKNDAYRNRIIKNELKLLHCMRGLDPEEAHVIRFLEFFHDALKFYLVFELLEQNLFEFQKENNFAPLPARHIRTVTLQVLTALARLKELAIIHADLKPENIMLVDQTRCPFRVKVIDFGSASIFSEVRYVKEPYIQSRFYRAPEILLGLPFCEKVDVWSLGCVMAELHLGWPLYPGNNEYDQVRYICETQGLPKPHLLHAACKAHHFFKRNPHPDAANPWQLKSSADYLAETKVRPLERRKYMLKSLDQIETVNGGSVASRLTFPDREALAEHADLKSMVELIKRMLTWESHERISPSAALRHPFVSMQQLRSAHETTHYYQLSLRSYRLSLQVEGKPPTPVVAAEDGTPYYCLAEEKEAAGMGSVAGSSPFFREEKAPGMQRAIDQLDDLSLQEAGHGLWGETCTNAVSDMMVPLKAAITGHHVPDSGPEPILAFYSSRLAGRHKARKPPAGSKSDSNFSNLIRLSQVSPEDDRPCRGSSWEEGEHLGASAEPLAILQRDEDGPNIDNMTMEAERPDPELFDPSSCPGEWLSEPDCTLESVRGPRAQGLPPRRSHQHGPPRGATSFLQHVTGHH
# UniProt P57078, sequence (whole entry, looked up): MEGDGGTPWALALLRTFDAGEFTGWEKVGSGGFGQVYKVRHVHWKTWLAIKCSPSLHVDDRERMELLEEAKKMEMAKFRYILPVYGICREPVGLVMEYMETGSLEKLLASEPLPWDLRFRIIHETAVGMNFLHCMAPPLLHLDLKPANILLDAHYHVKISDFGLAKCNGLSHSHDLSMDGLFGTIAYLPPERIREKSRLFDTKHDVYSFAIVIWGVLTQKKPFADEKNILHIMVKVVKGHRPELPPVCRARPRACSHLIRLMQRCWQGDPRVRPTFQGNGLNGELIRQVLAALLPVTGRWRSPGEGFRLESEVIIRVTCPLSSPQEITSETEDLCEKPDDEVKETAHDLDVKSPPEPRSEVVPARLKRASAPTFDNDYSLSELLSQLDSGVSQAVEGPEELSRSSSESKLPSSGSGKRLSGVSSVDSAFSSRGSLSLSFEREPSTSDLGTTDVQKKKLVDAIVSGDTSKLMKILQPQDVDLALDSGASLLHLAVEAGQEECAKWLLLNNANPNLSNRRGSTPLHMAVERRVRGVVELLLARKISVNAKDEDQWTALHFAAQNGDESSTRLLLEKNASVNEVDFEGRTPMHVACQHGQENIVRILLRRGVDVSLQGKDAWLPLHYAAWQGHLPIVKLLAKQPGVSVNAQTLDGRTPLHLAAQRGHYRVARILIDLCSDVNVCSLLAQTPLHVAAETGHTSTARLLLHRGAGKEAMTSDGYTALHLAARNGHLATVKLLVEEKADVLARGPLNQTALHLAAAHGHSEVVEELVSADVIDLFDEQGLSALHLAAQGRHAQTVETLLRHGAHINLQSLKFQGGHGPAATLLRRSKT
# UniProt P19525, sequence (whole entry, looked up): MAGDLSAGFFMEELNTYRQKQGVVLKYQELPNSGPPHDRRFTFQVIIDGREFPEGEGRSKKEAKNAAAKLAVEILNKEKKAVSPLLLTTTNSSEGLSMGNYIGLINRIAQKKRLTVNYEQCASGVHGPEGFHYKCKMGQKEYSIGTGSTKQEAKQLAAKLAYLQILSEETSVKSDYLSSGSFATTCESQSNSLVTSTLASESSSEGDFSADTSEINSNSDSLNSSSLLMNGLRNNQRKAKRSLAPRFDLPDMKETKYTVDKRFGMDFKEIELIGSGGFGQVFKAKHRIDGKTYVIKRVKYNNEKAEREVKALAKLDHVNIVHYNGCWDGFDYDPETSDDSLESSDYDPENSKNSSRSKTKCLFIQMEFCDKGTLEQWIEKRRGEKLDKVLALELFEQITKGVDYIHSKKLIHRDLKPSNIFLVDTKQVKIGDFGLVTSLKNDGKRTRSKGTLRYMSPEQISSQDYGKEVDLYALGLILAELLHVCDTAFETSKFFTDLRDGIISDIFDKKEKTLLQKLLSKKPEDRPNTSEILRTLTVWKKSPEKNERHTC

# Set 1 — effect on: binding; technique: HTRF; concentration: 0.051 nM
# Target: Membrane-associated tyrosine- and threonine-specific cdc2-inhibitory kinase (PKMYT1, Homo sapiens, UniProt Q99640)
# Construct (Q99640 1-499): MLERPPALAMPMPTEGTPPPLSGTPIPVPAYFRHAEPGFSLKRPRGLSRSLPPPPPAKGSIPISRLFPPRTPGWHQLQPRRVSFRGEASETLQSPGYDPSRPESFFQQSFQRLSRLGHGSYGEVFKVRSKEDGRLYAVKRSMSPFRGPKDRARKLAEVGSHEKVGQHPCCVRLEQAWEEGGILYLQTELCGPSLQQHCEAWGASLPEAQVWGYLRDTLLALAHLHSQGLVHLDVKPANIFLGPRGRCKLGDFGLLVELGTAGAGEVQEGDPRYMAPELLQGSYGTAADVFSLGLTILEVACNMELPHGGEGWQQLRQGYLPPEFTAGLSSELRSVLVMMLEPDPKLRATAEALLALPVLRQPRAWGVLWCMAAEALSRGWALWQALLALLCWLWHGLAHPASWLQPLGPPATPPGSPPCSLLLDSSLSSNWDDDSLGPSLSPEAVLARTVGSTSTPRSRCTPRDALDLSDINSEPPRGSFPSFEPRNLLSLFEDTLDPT
SMILES,inhibition
Cc1ccc(O)c(C)c1-c1cnc2[nH]c(-c3cnc(N4CCC(CN5CCN(c6ccc(NC7CCC(=O)NC7=O)c(F)c6)CC5)CC4)nc3)cc2c1C#N (racemic),1.14% and -0.554%
Cc1ccc(O)c(C)c1-c1cnc2[nH]c(-c3cnc(N4CCC5(CC4)CC(N4CCN(c6cc7c(cc6F)c(N6CCC(=O)NC6=O)nn7C)CC4)CO5)nc3)cc2c1C#N (racemic),0.517% and 5.87%
Cc1ccc(O)c(C)c1-c1cnc2[nH]c(-c3cnc(N4CCC(CN5CCN(c6c(F)cc(NC7CCC(=O)NC7=O)cc6F)CC5)CC4)nc3)cc2c1C#N (racemic),-6.27% and -4.72%
Cc1ccc(O)c(C)c1-c1cnc2[nH]c(-c3cnc(N4CCC5(CC4)CC(N4CCN(c6ccc7c(c6)C(=O)N(C6CCC(=O)NC6=O)C7=O)CC4)CO5)nc3)cc2c1C#N (mixture of isomers),0.035% and 0.709%
Cc1ccc(O)c(C)c1-c1cnc2[nH]c(-c3cnc(N4CCC(CCN5CCN(c6ccc7c(c6)C(=O)N(C6CCC(=O)NC6=O)C7=O)CC5)CC4)nc3)cc2c1C#N (racemic),-0.024% and 0.329%

# Set 2 — effect on: thermal unfolding; technique: differential scanning fluorimetry; concentration: 5.5 µM; reading: higher = more unfolded
# Compound: C[C@@H]1CN(c2ccc(-c3cc(C(=O)NCCOCCOCCOCCOCCNC(=O)/C=C/c4[nH]cc(C(=O)N[C@@H](CC(N)=O)c5ccc(F)c(Cl)c5)c4-c4ccc(Cl)cc4F)ccc3F)cc2NC(=O)c2c[nH]c(=O)cc2C(F)(F)F)C[C@H](C)N1C
# WDR5: WD repeat-containing protein 5 (WDR5, Homo sapiens, UniProt P61964)
# DCAF1: DDB1- and CUL4-associated factor 1 (DCAF1, Homo sapiens, UniProt Q9Y4B6)
# UniProt Q9Y4B6, sequence (whole entry, looked up): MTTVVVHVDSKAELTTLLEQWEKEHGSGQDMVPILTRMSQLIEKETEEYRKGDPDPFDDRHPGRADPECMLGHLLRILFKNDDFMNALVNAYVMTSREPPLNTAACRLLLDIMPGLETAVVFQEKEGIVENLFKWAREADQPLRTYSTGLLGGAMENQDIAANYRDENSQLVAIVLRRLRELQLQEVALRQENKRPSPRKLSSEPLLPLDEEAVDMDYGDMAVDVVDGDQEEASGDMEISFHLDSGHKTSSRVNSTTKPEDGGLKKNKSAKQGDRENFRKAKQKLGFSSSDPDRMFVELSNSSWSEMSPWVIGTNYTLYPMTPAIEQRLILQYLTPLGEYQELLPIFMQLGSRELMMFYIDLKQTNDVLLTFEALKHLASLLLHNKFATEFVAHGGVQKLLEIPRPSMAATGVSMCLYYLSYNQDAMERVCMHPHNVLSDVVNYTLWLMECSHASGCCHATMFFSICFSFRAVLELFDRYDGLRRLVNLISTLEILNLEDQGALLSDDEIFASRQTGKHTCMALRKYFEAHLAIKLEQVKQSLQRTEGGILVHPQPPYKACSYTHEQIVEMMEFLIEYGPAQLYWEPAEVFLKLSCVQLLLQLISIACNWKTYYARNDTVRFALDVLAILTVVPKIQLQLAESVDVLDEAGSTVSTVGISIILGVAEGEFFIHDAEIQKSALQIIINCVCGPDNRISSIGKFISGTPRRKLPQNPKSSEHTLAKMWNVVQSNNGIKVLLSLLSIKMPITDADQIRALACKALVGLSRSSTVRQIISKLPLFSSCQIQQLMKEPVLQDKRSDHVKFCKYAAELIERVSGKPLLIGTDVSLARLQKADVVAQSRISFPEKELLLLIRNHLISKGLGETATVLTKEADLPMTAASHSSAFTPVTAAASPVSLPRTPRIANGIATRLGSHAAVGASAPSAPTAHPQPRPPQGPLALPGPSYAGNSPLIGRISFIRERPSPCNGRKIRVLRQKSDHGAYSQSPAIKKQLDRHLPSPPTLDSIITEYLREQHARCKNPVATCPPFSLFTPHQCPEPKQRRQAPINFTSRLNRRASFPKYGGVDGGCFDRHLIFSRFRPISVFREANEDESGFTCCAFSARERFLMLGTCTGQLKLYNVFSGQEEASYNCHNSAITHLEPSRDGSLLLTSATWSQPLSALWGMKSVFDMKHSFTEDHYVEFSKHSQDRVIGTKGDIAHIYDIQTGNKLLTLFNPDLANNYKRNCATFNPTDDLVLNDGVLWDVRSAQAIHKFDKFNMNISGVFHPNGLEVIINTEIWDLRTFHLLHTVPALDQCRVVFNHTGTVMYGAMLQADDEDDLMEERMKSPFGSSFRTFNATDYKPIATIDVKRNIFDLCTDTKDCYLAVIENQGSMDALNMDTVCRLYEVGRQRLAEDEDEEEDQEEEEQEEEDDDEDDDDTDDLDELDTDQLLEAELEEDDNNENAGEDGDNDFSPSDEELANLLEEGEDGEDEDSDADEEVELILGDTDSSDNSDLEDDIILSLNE
target,setting,SYPRO Orange fluorescence
WDR5,80.41 °C,41600 a.u.
WDR5,56.21 °C,16800 a.u.
WDR5,90.81 °C,50100 a.u.
DCAF1,59.41 °C,37800 a.u.
DCAF1,78.21 °C,47000 a.u.
DCAF1,55.01 °C,21500 a.u.
WDR5,93.61 °C,46800 a.u.
DCAF1,81.81 °C,43200 a.u.
WDR5,82.61 °C,47600 a.u.
WDR5,51.6 °C,16800 a.u.
WDR5,58.61 °C,16200 a.u.

# Set 3 — effect on: binding; technique: competition with immobilised ligand; concentration: 1 µM
# Compound: COc1cc(-c2nc3ccc(C(=O)NCCCN4CCN(c5cccc(C)c5C)CC4)cc3n2C2CCC2)cc(OC)c1OC
target,remaining binding [%]
"Mitogen-activated protein kinase 1 (MAPK1, Homo sapiens, UniProt P28482)",84
"Interferon-induced, double-stranded RNA-activated protein kinase (EIF2AK2, Homo sapiens, UniProt P19525)",100
"Mitogen-activated protein kinase kinase kinase 19 (MAP3K19, Homo sapiens, UniProt Q56UN5)",99
"Tyrosine-protein kinase Blk (BLK, Homo sapiens, UniProt P51451)",81
"Homeodomain-interacting protein kinase 4 (HIPK4, Homo sapiens, UniProt Q8NE63)",100
"Dual specificity mitogen-activated protein kinase kinase 6 (MAP2K6, Homo sapiens, UniProt P52564)",81
"Platelet-derived growth factor receptor beta (PDGFRB, Homo sapiens, UniProt P09619)",100
"Protein kinase C theta type (PRKCQ, Homo sapiens, UniProt Q04759)",87
"Ribosomal protein S6 kinase alpha-4, C-terminal kinase domain (RPS6KA4, Homo sapiens, UniProt O75676)",95
"Ribosomal protein S6 kinase alpha-3, N-terminal kinase domain (RPS6KA3, Homo sapiens, UniProt P51812)",83
"Serine/threonine-protein kinase tousled-like 2 (TLK2, Homo sapiens, UniProt Q86UE8)",100
"Protein-tyrosine kinase 6 (PTK6, Homo sapiens, UniProt Q13882)",95
"Phosphatidylinositol 4-phosphate 3-kinase C2 domain-containing subunit beta (PIK3C2B, Homo sapiens, UniProt O00750)",73
"Serine/threonine-protein kinase Nek3 (NEK3, Homo sapiens, UniProt P51956)",78
"Myosin light chain kinase (MYLK3, Homo sapiens, UniProt Q32MK0)",99
"Cyclin-dependent kinase 18 (CDK18, Homo sapiens, UniProt Q07002)",96
"Mitogen-activated protein kinase 9 (MAPK9, Homo sapiens, UniProt P45984)",77
"Tyrosine-protein kinase ABL1, phosphorylated (ABL1, Homo sapiens, UniProt P00519, T315I)",71
"Receptor-interacting serine/threonine-protein kinase 4 (RIPK4, Homo sapiens, UniProt P57078)",99
"Interleukin-1 receptor-associated kinase 1 (IRAK1, Homo sapiens, UniProt P51617)",89

# Set 4 — effect on: binding; mode: competitor; technique: NanoBRET; cells: HEK293
# SMILES: CN1CCC[C@H]1COc1nc2c(c(N3CCN(C(=O)C4CC4)[C@@H](CC#N)C3)n1)CCN(c1cccc3cccc(Cl)c13)C2
# KRAS G12D: GTPase KRas (KRAS, Homo sapiens, UniProt P01116, G12D)
# KRAS Q61R: GTPase KRas (KRAS, Homo sapiens, UniProt P01116, Q61R)
# KRAS Q61H: GTPase KRas (KRAS, Homo sapiens, UniProt P01116, Q61H)
target,setting,normalized BRET
KRAS G12D,33.3 µM,39.4% and 31.8% and 29%
KRAS Q61R,3.7 µM,79.6% and 97.3% and 70.7%
KRAS G12D,412 nM,106% and 94.4% and 93.4%
KRAS Q61H,33.3 µM,6.88% and 7.8% and 7.68%
KRAS G12D,45.7 nM,95% and 99.8% and 102%
KRAS Q61H,11.1 µM,18.7% and 26.5% and 21.8%
"GTPase KRas (KRAS, Homo sapiens, UniProt P01116, Q61L)",5.08 nM,95.1% and 90.4% and 96.7%
KRAS G12D,11.1 µM,64.1% and 90.4% and 75.4%
KRAS Q61R,33.3 µM,87.8% and 71.2% and 59.6%
KRAS Q61H,1.24 µM,67.3% and 65.6% and 68.1%
KRAS Q61R,5.08 nM,91.6% and 99.9% and 87.9%

# Repeated from above (set 4):
target,setting,normalized BRET
KRAS Q61R,3.7 µM,79.6% and 97.3% and 70.7%
KRAS G12D,45.7 nM,95% and 99.8% and 102%
KRAS G12D,33.3 µM,39.4% and 31.8% and 29%
KRAS Q61R,33.3 µM,87.8% and 71.2% and 59.6%
KRAS Q61H,1.24 µM,67.3% and 65.6% and 68.1%
KRAS Q61H,11.1 µM,18.7% and 26.5% and 21.8%
KRAS Q61H,33.3 µM,6.88% and 7.8% and 7.68%
"GTPase KRas (KRAS, Homo sapiens, UniProt P01116, Q61L)",5.08 nM,95.1% and 90.4% and 96.7%
